Measured values of several laboratories.
± marks the error that the study gave.

SMILES	assay	system	setting	terminal half-life
O=C(Nc1ccc(OC(F)(F)F)cc1)N[C@H]1CC[C@H](Oc2ccc(C(=O)O)cc2)CC1		horses, plasma	intravenous, 0.3 mg/kg	780 ± 30 min
CS(=O)(=O)n1cc2c(n1)CN([C@H]1CO[C@H](c3cc(F)ccc3F)[C@@H](N)C1)C2		healthy Japanese men, plasma	oral, dose not given, single dose	> 6000 min
COc1cc2c(cc1OC)CN(CCc1ccc(NC(=O)c3cc(OC)c(OC)cc3NC(=O)c3cnc4ccccc4c3)cc1)CC2		human, plasma	intravenous infusion, 4 mg/kg	2580 min
N[C@@H](CC(=O)N1CCc2c(nc(C(F)(F)F)nc2C(F)(F)F)C1)CN1CC(F)(F)CCC1=O		healthy Korean male volunteers	oral, 50 mg, day 7, mean, together with: glimepiride	627 min
COc1cccc(N2CCN(C3=Nc4c(F)cccc4[C@H](CC(=O)O)N3c3cc(C(F)(F)F)ccc3OC)CC2)c1	UHPLC-MS/MS	healthy women, plasma	intravenous infusion, 240 mg single dose, 30 min infusion, HPβCD formulation	646 ± 114 min
NCCCC[C@@H]1NC(=O)[C@@H](Cc2c[nH]c3ccccc23)NC(=O)[C@H](c2ccccc2)NC(=O)[C@@H]2C[C@@H](OC(=O)NCCN)CN2C(=O)[C@H](Cc2ccccc2)NC(=O)[C@H](Cc2ccc(OCc3ccccc3)cc2)NC1=O		healthy male volunteers, plasma	subcutaneous, 1200 µg	3950 ± 4170 min
N#Cc1ccc2c(c1)[C@H]1CCCN(C(=O)c3ccc4[nH]cnc4c3)[C@H]1C2		type 2 diabetes patients, plasma	oral, 10 and 360 mg, steady state, multiple doses, range	6360 to 7440 min
NS(=O)(=O)OC[C@@H]1C[C@@H](n2ccc3c(N[C@H]4CCc5ccccc54)ncnc32)C[C@@H]1O	population PK model	adult cancer patients, plasma	intravenous, typical patient	~480 min
CCCOc1ccc([C@H]2CNC(=O)N2c2ccc3[nH]cnc3c2)cc1		non-elderly adults, fasted, plasma	oral, 20 mg twice daily, day 11, oral solution, geometric mean	142 min
O=C1CCc2ccc(OCCCCN3CCN(c4cccc(Cl)c4Cl)CC3)cc2N1		healthy Japanese men, CYP2D6 EM, plasma	oral, 3 mg aripiprazole single, together with: paroxetine 20 mg/day	6660 ± 942 min
CC(C)(Sc1ccncc1-c1ccc(C#N)c2ccccc12)C(=O)O		male, plasma	oral, 15 mg, severe renal impairment, fasted	1320 min

For quick reference, copied from above:
SMILES	assay	system	setting	terminal half-life
CCCOc1ccc([C@H]2CNC(=O)N2c2ccc3[nH]cnc3c2)cc1		non-elderly adults, fasted, plasma	oral, 20 mg twice daily, day 11, oral solution, geometric mean	142 min
